Assay results pooled from the literature.
Compare with care: the assays were run in different laboratories.
Target: NAD-dependent protein deacylase sirtuin-6 (SIRT6, Homo sapiens, UniProt Q8N6T7)
Chain of UniProt Q8N6T7 (whole entry, looked up): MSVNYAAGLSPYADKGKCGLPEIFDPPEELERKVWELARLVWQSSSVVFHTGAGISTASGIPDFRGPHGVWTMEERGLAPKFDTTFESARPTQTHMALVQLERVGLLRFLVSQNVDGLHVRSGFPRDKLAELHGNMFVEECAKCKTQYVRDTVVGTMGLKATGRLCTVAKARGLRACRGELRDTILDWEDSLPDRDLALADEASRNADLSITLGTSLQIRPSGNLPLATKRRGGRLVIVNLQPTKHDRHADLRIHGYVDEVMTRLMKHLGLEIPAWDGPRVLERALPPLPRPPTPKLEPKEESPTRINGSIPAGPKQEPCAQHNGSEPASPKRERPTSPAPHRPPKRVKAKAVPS

For NC(=O)c1ccc(C(=O)NOCc2ccccc2)cc1, the IC50 was 11.2 µM (enzyme activity, inhibitor, fluorescence).
For Cc1cc(F)c(Br)cc1N1C(=O)c2cc(NS(=O)(=O)c3cc(Cl)cc(Cl)c3)ccc2S1(=O)=O, the EC50 was 28 µM (enzyme activity, activator, fluorescence).
NC(=O)c1cn(CC(=O)NC[C@H](NC(=O)CCc2nc(-c3cccnc3)no2)C(=O)Nc2ccccc2)c(=O)[nH]c1=O gave an IC50 of 9.3 µM (inhibitor, biochemical).
With CCCCCCCCCCCCCC(=S)NCCCC[C@H](NC(=O)[C@@H]1CCCN1)C(=O)N[C@@H](CCCCN)C(=O)N[C@H](C(=O)NCC(=O)O)[C@@H](C)O the IC50 was 42.2 µM.
NC(=O)c1cn(CC(=O)NC[C@H](NC(=O)CCc2nc(-c3cccnc3)no2)C(=O)NC2CCC2)c(=O)[nH]c1=O has an IC50 of 8.2 µM (inhibitor, biochemical).
CC(=S)NCCCC[C@H](NC(=O)[C@H](CCCNC(=N)N)NC(=O)[C@H](C)N)C(=O)N[C@@H](CO)C(=O)N[C@H](C(=O)O)[C@@H](C)O gave an IC50 of greater than 100 µM (enzyme activity, inhibitor).
With NC(=O)c1ccc(C(=O)NOCc2ccc(Sc3cccc(Cl)c3)c(C(F)(F)F)c2)cc1 the Kd was 9.46 µM (binding, SPR).
For Cc1cc(F)ccc1NS(=O)(=O)c1ccc(NS(=O)(=O)c2cc(Cl)cc(Cl)c2)cc1C(=O)O, the Kd was 278 µM (binding, MST).

Excerpt of the above:
For Cc1cc(F)c(Br)cc1N1C(=O)c2cc(NS(=O)(=O)c3cc(Cl)cc(Cl)c3)ccc2S1(=O)=O, the EC50 was 28 µM (enzyme activity, activator, fluorescence).
